Experimental data from different studies.
± marks the error that the study gave.
rep nsp14 with nsp10: Replicase polyprotein 1ab, nsp14 with nsp10 (rep, Severe acute respiratory syndrome coronavirus 2, UniProt P0DTD1)
rep main protease: Replicase polyprotein 1ab, main protease (rep, Severe acute respiratory syndrome coronavirus 2, UniProt P0DTD1)
OPRL1: Nociceptin receptor (OPRL1, Homo sapiens, UniProt P41146)

The chains behind the UniProt entries cited, without tags or fusion partners.
UniProt P41146, whole entry: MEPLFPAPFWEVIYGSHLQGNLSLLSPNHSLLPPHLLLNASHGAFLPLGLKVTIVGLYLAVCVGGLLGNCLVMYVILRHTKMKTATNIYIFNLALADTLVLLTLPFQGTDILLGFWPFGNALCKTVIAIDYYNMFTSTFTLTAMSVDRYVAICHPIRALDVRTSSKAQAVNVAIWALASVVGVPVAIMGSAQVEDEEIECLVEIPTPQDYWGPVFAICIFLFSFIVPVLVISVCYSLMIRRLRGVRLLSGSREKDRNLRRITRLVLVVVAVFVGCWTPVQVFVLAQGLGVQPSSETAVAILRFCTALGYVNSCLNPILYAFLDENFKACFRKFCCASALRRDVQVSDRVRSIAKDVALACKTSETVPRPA

SMILES	tested on	assay	test system	conditions	scale	endpoint	value
Cc1ccc(S(=O)(=O)Nc2cccc(C(=O)NC3CCN(c4ncnc5[nH]cnc45)CC3)c2)cc1	Replicase polyprotein 1ab, nsp14 ExoN with nsp10 (rep, Severe acute respiratory syndrome coronavirus 2, UniProt P0DTD1)	ExoN activity		0.1953 µM		inhibition	7.6%
CC(C)(C)c1ccc(-c2cn(-c3ccc(C(=O)C=C(O)C(=O)O)cc3)nn2)cc1	rep nsp14 with nsp10	exonuclease activity, inhibitor		20 µM		inhibition	-5%
CC(C)C[C@H](NC(=O)[C@@H](NC(=O)[C@@H](NC(=O)[C@H](CO)NC(=O)c1ccccc1N)C(C)C)[C@@H](C)O)C(=O)N[C@@H](CCC(N)=O)C(=O)N[C@@H](CO)C(=O)NCC(=O)N[C@@H](Cc1ccc(O)c([N+](=O)[O-])c1)C(=O)N[C@@H](CCCNC(=N)N)C(=O)O	rep main protease	substrate		pH 7.4, 300 nM enzyme		Km	132 ± 25.9 µM
O=C(Oc1cncc(Cl)c1)c1cc2ccccc2s1	rep main protease	enzyme activity	SARS-CoV-2	concentration not given, pH 7.2		inhibition	100%
O=C(Nc1cccc(Cl)c1)Nc1nonc1NC(=O)Nc1cccc(Cl)c1	Replicase polyprotein 1ab, nsp4-nsp5-nsp6 precursor (rep, Severe acute respiratory syndrome coronavirus 2, UniProt P0DTD1)	reporter gene, cell-based secondary screen				luciferase signal	8.4 ± 0.7%
CC[C@H](C)[C@H](NC(=O)[C@H](C)NC(=O)[C@H](CCC(=O)O)NC(=O)[C@H](CCC(=O)O)NC(=O)[C@H](CC(C)C)NC(=O)[C@H](CCCCN)NC(=O)[C@H](CCCCN)NC(=O)[C@H](CCSC)NC(=O)[C@H](CCC(=O)O)NC(=O)[C@H](Cc1ccc(O)cc1)NC(=O)[C@H](CCC(=O)O)NC(=O)[C@H](CC(C)C)NC(=O)[C@H](CC(=O)O)NC(=O)[C@H](CC(C)C)NC(=O)[C@H](Cc1ccccc1)NC(=O)[C@H](Cc1ccccc1)NC(=O)[C@@H](NC(=O)[C@H](CC(N)=O)NC(=O)[C@@H](NC(=O)[C@H](CCC(N)=O)NC(=O)[C@H](CC(=O)O)NC(=O)[C@H](CC(C)C)NC(=O)[C@@H](N)CO)[C@@H](C)CC)C(C)C)C(=O)N[C@@H](CCCCN)C(=O)N[C@@H](CCCCN)C(=O)N[C@@H](CC(C)C)C(=O)N[C@@H](CCC(=O)O)C(=O)N[C@@H](CCC(=O)O)C(=O)N[C@@H](CO)C(=O)N[C@@H](Cc1ccc(O)cc1)C(=O)N[C@H](C(=O)N[C@@H](CC(=O)O)C(=O)N[C@@H](CC(C)C)C(=O)N[C@@H](CCCCN)C(=O)N[C@@H](CCC(=O)O)C(=O)N[C@@H](CC(C)C)C(=O)O)[C@@H](C)CC	SARS-CoV-2 Alpha pseudovirus	pseudovirus infection, inhibitor, luciferase	Caco-2	24 h		IC50	294 nM
Clc1nc2ccccc2cc1/C=N/c1cc(Br)ccn1	Replicase polyprotein 1ab, papain-like protease (rep, Severe acute respiratory syndrome coronavirus 2, UniProt P0DTD1)	enzyme activity, inhibitor		100 µM		inhibition	18.8%
Oc1nc(/C=C/c2ccc(Cl)cc2Cl)cc(C(F)(F)F)n1	Replicase polyprotein 1ab, nsp16 with nsp10 (rep, Severe acute respiratory syndrome coronavirus 2, UniProt P0DTD1)	irreversible inhibitor				activation free energy	21.2 kcal/mol
NS(=O)(=O)c1ccc(-c2cn(-c3ccc(C(=O)C=C(O)C(=O)O)cc3)nn2)cc1	rep nsp14 with nsp10	exonuclease activity, inhibitor		20 µM		inhibition	118%
CC(C)[C@H]1CC[C@@H](N2CCC3(CC2)C(=O)NCN3c2ccccc2)CC1	OPRL1	calcium mobilization	CHO with Gαqi5		reference: baseline	Emax	278 ± 23%
O=C(NCc1ccc(F)cc1)C1C(=O)N(O)C(=O)c2cc([N+](=O)[O-])ccc21 (stereo not shown)	rep nsp14 with nsp10	exonuclease activity, inhibitor		20 µM		inhibition	106%
O=C1Cc2ccccc2N1C1CCN([C@@H]2CC[C@H]3CCCc4cccc2c43)CC1	OPRL1	calcium mobilization	CHO with Gαqi5		reference: compound over N/OFQ EC50	concentration ratio	120
CC[C@H](C)[C@H](NC(=O)[C@H](C)NC(=O)[C@H](CCC(=O)O)NC(=O)[C@H](CCC(=O)O)NC(=O)[C@H](CC(C)C)NC(=O)[C@H](CCCCN)NC(=O)[C@H](CCCCN)NC(=O)[C@H](CCSC)NC(=O)[C@H](CCC(=O)O)NC(=O)[C@H](Cc1ccc(O)cc1)NC(=O)[C@H](CCC(=O)O)NC(=O)[C@H](CC(C)C)NC(=O)[C@H](CC(=O)O)NC(=O)[C@H](CC(C)C)NC(=O)[C@H](Cc1ccccc1)NC(=O)[C@@H](NC(=O)[C@@H](NC(=O)[C@H](CC(N)=O)NC(=O)[C@@H](NC(=O)[C@H](CCC(N)=O)NC(=O)[C@H](CC(=O)O)NC(=O)[C@H](CC(C)C)NC(=O)[C@H](CO)NC(=O)[C@H](CC(C)C)NC(=O)[C@H](CC(=O)O)NC(=O)[C@@H]1CCCN1C(=O)[C@H](C)N)[C@@H](C)CC)C(C)C)[C@@H](C)O)C(=O)N[C@@H](CCCCN)C(=O)N[C@@H](CCCCN)C(=O)N[C@@H](CC(C)C)C(=O)N[C@@H](CCC(=O)O)C(=O)N[C@@H](CCC(=O)O)C(=O)N[C@@H](CO)C(=O)N[C@@H](Cc1ccc(O)cc1)C(=O)N[C@H](C(=O)N[C@@H](CC(=O)O)C(=O)N[C@@H](CC(C)C)C(=O)N[C@@H](CCCCN)C(=O)N[C@@H](CCC(=O)O)C(=O)N[C@@H](CC(C)C)C(=O)O)[C@@H](C)CC	SARS-CoV-2 EG.5.1 pseudovirus	pseudovirus infection, inhibitor, luciferase	Caco-2	24 h		IC50	193 nM

Some of these lines once more:
SMILES	tested on	assay	test system	conditions	scale	endpoint	value
CC(C)(C)c1ccc(-c2cn(-c3ccc(C(=O)C=C(O)C(=O)O)cc3)nn2)cc1	rep nsp14 with nsp10	exonuclease activity, inhibitor		20 µM		inhibition	-5%
CC(C)C[C@H](NC(=O)[C@@H](NC(=O)[C@@H](NC(=O)[C@H](CO)NC(=O)c1ccccc1N)C(C)C)[C@@H](C)O)C(=O)N[C@@H](CCC(N)=O)C(=O)N[C@@H](CO)C(=O)NCC(=O)N[C@@H](Cc1ccc(O)c([N+](=O)[O-])c1)C(=O)N[C@@H](CCCNC(=N)N)C(=O)O	rep main protease	substrate		pH 7.4, 300 nM enzyme		Km	132 ± 25.9 µM
